Results from different studies.
Numbered parts are unrelated; each lists some results of a single study. Substitutions count along the parent as printed.

Sample 1 — technique: DHFR PCA, deep sequencing; matrix: yeast; added: (+)-ABA 4.8 µM; baseline: wild-type fitted maximum; reading: higher = stronger binding
Target: ABI1, truncated, D143A, DHFR fusion (Arabidopsis thaliana)
Setting: methotrexate growth selection, single substitutions
Parent: PYL1, truncated, DHFR fusion (Arabidopsis thaliana); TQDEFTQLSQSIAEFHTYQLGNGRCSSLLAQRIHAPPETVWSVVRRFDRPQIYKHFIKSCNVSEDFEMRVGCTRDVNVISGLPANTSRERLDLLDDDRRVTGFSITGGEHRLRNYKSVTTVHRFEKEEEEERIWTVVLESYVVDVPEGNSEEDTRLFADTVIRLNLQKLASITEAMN; partner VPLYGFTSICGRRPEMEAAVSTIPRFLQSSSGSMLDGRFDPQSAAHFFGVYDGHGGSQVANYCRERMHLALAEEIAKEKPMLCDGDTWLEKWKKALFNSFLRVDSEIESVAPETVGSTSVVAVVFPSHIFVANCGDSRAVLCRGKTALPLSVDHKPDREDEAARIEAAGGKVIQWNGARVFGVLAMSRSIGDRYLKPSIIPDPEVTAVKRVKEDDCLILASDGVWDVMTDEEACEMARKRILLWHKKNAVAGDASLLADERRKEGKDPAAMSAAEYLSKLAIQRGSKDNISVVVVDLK
Substitution | relative binding score [%]
L94P | 7.31
R163P | -1.26
F56Y | 27.8
E147V | 61.6
E130V | 72.6
S117K | -5.94
L156T | 85.4
R99Q | 59.6
H55Q | 94.2
D92A | 7.25

Sample 2 — technique: protein binding microarray; molecule type: double-stranded DNA, one strand shown; matrix: in vitro; tested at: not given; baseline: not given; reading: higher = stronger binding
Target: Histone acetyltransferase KAT6A, winged helix 1, GST fusion (KAT6A, Homo sapiens, UniProt Q92794, residues 1-85)
Setting: 8-mer, flanks averaged, mean of 2 arrays, mostly near background
Target sequence (chain): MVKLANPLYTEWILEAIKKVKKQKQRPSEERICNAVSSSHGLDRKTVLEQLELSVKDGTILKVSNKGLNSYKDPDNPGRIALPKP
Oligonucleotide | E-score
CTTGCGGA | 0.0567
ACTGTAGG | -0.158
AGACTCAC | -0.254
AAGACCAA | -0.0781
CTGGGGCA | -0.215
GGCTCAAA | 0.0333
AGGTGTAA | -0.163
ACTGCGCC | 0.289
GAAATACA | -0.174
ACCCGCTG | 0.228
CTGTGAGA | -0.156
ACCAGTAA | -0.0233
CTCACGAG | -0.201
CTAGTACC | -0.0139
ATTTACAC | -0.0426
AGAGGGAT | -0.175
GAAGAGGA | -0.0331
AACTGTGT | -0.15
AAGCGGAG | -0.0542
ACGTTTCT | -0.275
TGTCCAAA | -0.0758
AGGCTTAT | -0.14

Sample 3 — target: CCNB3, cyclin fold, Cln2 fusion (human); technique: yeast growth competition, sequencing; matrix: yeast; setting: weak parent motif; baseline: not given; reading: higher = stronger binding
Parent: GMNC docking peptide (human); KNAKRNLSSEFAN; partner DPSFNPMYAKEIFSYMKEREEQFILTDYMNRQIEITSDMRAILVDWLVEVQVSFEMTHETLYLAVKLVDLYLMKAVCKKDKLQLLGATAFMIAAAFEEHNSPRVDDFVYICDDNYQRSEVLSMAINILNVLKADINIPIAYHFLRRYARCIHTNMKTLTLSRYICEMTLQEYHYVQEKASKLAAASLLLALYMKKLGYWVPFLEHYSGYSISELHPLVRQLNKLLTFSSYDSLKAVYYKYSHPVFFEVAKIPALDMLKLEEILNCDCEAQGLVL
Substitution | normalised enrichment score
KNAKRVLSSEFAN [N6V] | -0.00571
KNAKINLSSEFAN [R5I] | 0.2
KNAKANLSSEFAN [R5A] | 0.108
KAAKRNLSSEFAN [N2A] | 0.339
KNAKRNLSNEFAN [S9N] | 0.357
KNGKRNLSSEFAN [A3G] | 0.186
KNAFRNLSSEFAN [K4F] | 0.171
KNAKRNLSSEFCN [A12C] | 0.122
KNAKRNNSSEFAN [L7N] | -0.133
KNAKRNLSSEFSN [A12S] | 0.0542
KNAKRNLSSEFEN [A12E] | 0.342
KNAKRNLSSEHAN [F11H] | -0.0716
KNARRNLSSEFAN [K4R] | 0.954
KNAKRNLSSRFAN [E10R] | 0.606
KRAKRNLSSEFAN [N2R] | 0.646
KHAKRNLSSEFAN [N2H] | 0.251
KDAKRNLSSEFAN [N2D] | 0.397
KNAKGNLSSEFAN [R5G] | 0.138
KTAKRNLSSEFAN [N2T] | 0.495
KVAKRNLSSEFAN [N2V] | -0.0679
KNAKRNLSSEFGN [A12G] | 0.118
KNAKRNLMSEFAN [S8M] | 1.08
KNAKRNPSSEFAN [L7P] | 0.129
KNNKRNLSSEFAN [A3N] | 0.205
KNAKRNLASEFAN [S8A] | 0.0775

Other studies, line by line
Substance | target | assay | test system | conditions | how to read | endpoint | result
PhoQ, residues 284 288 289 292 302 303 SLSVQF | PhoP, residues 12 14 15 18 19 AQCLL (Escherichia coli, UniProt P23836) | Sort-seq, measured: YFP reporter | E. coli | PhoQ-PhoP variant library, added: 10 µM Mg2+ | baseline: high Mg2+ state, higher = stronger signaling | fold induction | 1.28
